Results collected from several papers.
A part holds a random share of what one study measured.

Set 1
Target: Ras GTPase-activating protein-binding protein 1, RRM domain (G3BP1, Homo sapiens, UniProt Q13283)
UniProt Q13283, sequence (whole entry, looked up): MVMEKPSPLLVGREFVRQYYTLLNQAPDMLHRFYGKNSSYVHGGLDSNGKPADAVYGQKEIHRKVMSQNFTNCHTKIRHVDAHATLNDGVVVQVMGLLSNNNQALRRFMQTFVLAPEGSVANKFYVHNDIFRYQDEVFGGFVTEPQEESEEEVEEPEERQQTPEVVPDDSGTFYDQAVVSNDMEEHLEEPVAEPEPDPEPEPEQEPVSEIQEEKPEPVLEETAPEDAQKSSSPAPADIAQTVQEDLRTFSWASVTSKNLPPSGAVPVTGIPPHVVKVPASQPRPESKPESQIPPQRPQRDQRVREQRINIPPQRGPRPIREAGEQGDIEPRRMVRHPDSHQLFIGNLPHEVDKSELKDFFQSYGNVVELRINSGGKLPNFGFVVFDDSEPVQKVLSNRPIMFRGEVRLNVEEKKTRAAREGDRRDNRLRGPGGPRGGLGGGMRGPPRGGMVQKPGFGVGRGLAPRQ
Method: RNA Bind-n-Seq
Form: RNA
Medium: in vitro
Tested at: 1 µM
Notes: whole 134-nt RNA, ends assumed
Added: 150 mM KCl
Baseline: input library
Reading: higher = stronger binding
Endpoint: log2 enrichment
Constant ends, left off below: GGGAGUUCUACAGUCCGACGAUC … UGGAAUUCUCGGGUGUCAAGG
Strand = CUGUGCUACACAUCGUAUGUACCGAAUCGGGGUUUUUUUGGGGUUUGGGGUUUUUUUGGGGAAAGUAUUAUGUUACGCCGUUCGGAUCUG; result = 0.739
Strand = CAAGUCCUGUGCUACACAUCGUAUGUACCGAAUCAAAUUUAAACCCAAACCCAAAAAAGUAUUAUGUUACGCCGUUCGGAUCUGCACUUC; result = -0.0722
Strand = UGAAAUGUUUUUUUCUCUGUCUUCUUUCAGGUCUUUGUUGAGUAUGCAAAUGCUGGUGAUUCCAAAGCUGCGCAGAAAUUACUGACUGGA; result = -0.476
Strand = UCCUGUGCUACACAUCGUAUGUACCGAAUCGGGGCCCCCGGCCCCCGGGGCCCCCGGGGAAAGUAUUAUGUUACGCCGUUCGGAUCUGCA; result = -0.772
Strand = UGAAAAGAACUGCUCUCCAUGGAGAGAGUAACUCUGUCCUUAUUAUCGGACCCCGAGGAUCAGGAAAAACUAUGGUAAAAGCUGUUGAUU; result = -0.106
Strand = GUCCUGUGCUACACAUCGUAUGUACCGAAUCGGGGCCCCGGGCCCCGGGGCCCCGGGGAAAGUAUUAUGUUACGCCGUUCGGAUCUGCAC; result = -1.66
Strand = GCAGGAAGUAAAAACAAAUGGAAAUCCUUCGGAUAGUGGCAGGGGUGGGGGUUGCUAAGGAAAGGGUGGGAUGGGAGUGGGUAAAGAGUU; result = 1.07
Strand = UUGUGAUAGCCAAGUGGGACUACACCGCCCAGCAGGACCAGGAGCUGGACAUCAAGAAGAACGAGCGGCUGUGGUUGCUGGACGACUCCA; result = -0.288
Strand = CCUGUGCUACACAUCGUAUGUACCGAAUCGGAAAAAAAGGGAAAAAAAGGAAAAAAAGGGGAAAGUAUUAUGUUACGCCGUUCGGAUCUG; result = 0.0349
Strand = GUGCUACACAUCGUAUGUACCGAAUCGGGGCCCCCCCGGGGCCCCCCCGGGGCCCCCCCGGGGAAAGUAUUAUGUUACGCCGUUCGGAUC; result = -0.798
Strand = UUCAGUAAAAUGGCAGAAGAGAAACUGACCCACAAAAUGGAAGCUAAUAAAGAGAACCGAGAGGCACAAAUGGCUGCCAAACUGGAACGU; result = -0.0858
Strand = CUCAAGUCCUGUGCUACACAUCGUAUGUACCGAAUCGGGUGGGUGGGGUGGGGAAAGUAUUAUGUUACGCCGUUCGGAUCUGCACUUCCA; result = -0.33
Strand = UCAAGUCCUGUGCUACACAUCGUAUGUACCGAAUCGGGGCCGGCCGGGCCGGGGAAAGUAUUAUGUUACGCCGUUCGGAUCUGCACUUCC; result = -0.625
Strand = UCAAGUCCUGUGCUACACAUCGUAUGUACCGAAUCGGUUUGGAAAAAGGUUUGGAAAGUAUUAUGUUACGCCGUUCGGAUCUGCACUUCC; result = -0.224

Set 2
Target: Sal-like protein 4, full length isoform B (SALL4, Homo sapiens, UniProt Q9UJQ4-2, residues 1-616)
Method: universal PBM
Form: double-stranded DNA, one strand shown
Medium: in vitro
Tested at: not given
Notes: 8-mer, flanks averaged, mean of replicates
Reading: higher = stronger binding
Endpoint: E-score
Strand = GACGTTGC; result = -0.088
Strand = GACGTACA; result = -0.0168
Strand = ACGGTCAG; result = -0.0925
Strand = CCGACAGG; result = -0.136
Strand = TACTACGA; result = 0.151
Strand = TGGCTACA; result = 0.151
Strand = AGCTTTAA; result = 0.121
Strand = TGCCGGCA; result = -0.0818
Strand = ATCCCAGG; result = -0.184
Strand = CGTTCTTC; result = 0.00519
Strand = AAGCGTAC; result = 0.0263
Strand = CCAGGCAA; result = -0.173
Strand = CCTCTAAA; result = -0.0628
Strand = ATTTGTTA; result = 0.254
Strand = ATAGGTGG; result = 0.135
Strand = AACTGCGC; result = -0.135
Strand = ATGAGGAA; result = 0.171
Strand = AACGCGCG; result = -0.0696

Set 3
Target: RNA binding protein fox-1 homolog 2, RRM domain, GST-SBP tag (RBFOX2, Homo sapiens, UniProt O43251-10, residues 100-194)
Method: RNA Bind-n-Seq
Form: RNA
Medium: in vitro
Tested at: 365 nM
Notes: natural RNA segment, single round, ends assumed
Baseline: no-protein control
Reading: higher = stronger binding
Endpoint: RBNS enrichment (R)
Constant ends, left off below: GGGAGUUCUACAGUCCGACGAUC … UGGAAUUCUCGGGUGCCAA
Residues (chain): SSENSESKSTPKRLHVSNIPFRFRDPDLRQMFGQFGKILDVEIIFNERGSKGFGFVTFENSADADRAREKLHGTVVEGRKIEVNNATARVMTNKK
Strand = AUUUGUGUUUUUGGAGUCCUCAGCUCACAUGUCUUGUUCCUCCUUCAGCACAAGCUAGGGGAGAUCCUACCAACACUGAUAGGUCAGUCAUUGAUGGCAAUUUGAAUGUG; result = 1.96
Strand = UCUAAAUGAGGCCUAAAUGUGUGAAGUGCGAUUUCUGCUUUUGUGUACCCCACCACCCCAUUACCACAGCUGCCUUUGUGUGUUUGUGUCAAUAAAAAGCCAAACCCUGG; result = 0.419
Strand = UAACAUAUUUAUUAUAAUUUAUUUGCACCCUUGGGAAGAUUGCUUUGGCAUUCUGCCUUGAUUCCUUCUCAUUGAUGUCCAGGUCAUCUGGAGGCCGGGGGUUCUCAGAC; result = 1.77
Strand = CAGUGUGGCUUGCUGCCAGGCUCAGGCCAGGUCUGGACAGCUCUCACUCUCCUCAAGCCAGGACUACCGACCAGCCGGCUAUGGGCACAUUACUCUGUGGCUGCUGGAUU; result = 0.23
Strand = UGUUGUGUGUCCAGGGAAAUUCACAGCUCAGUAUGAGAAUACCUUGGUUAGUGCUCACCCACAAGCUUCCAGGAGCCAGCUGGGAGGAGACAAUAGGAAGAGAUGUCAUC; result = 0.218
Strand = AGUAUGAGCAAGACAUCUGAAGUACACAGUUGCUUUUAGGCUUGUAUAGUUAUUUUCUACACAUGCCAACACACAUGAUGAUAAAGGAACCUUUUCUAGGAGGCAUUGCA; result = 1.51
Strand = GUGGGCUGUGCGUGGGUUCACCUGGGGCCUGCUUUUCAGAAGGCAAAGAUAAGCCCGCCAUGCUGGGCUGGGGAACUCUGAAGAAGACCAGCAACGAGUACCUUCUCCCG; result = 0.357
Strand = AUGGGCCUAAACUAUGAGAGUUCAGAAAUAUAUAAAAGUACAAAAAUCUUCAAAGGUACUUAUUUCCAAAUAUGGAGGGAAUGAAUCUGAAGAGGGAACAAUGGCGUUUU; result = 0.425
Strand = CAGGUGGCCCCAGUUCAAUCUCCCGCUGCUGCUGCUGCGCCCUUACCUUCCCCAGCGUCCCAGUCUCUGGCAGUUCUGGAAUGGAAGGGUUCUGGCUGCCCCAACCUGCU; result = 0.253
Strand = UAUUUAAAUAUCCACUGUGUGUGUCACAAAGUUGUUCUUUUGAGUGCAAUAAAGAUAGCUUAACACAUCUCCAGAGCAGCAGCCGAUUUGUCUCUUUGAAGGGGGUAUUU; result = 0.754
Strand = AAAGUGCAUGCCUCUGUACGUCACACCUUUCUCACCCCUCCCUACCAACACGAGGUGUUUGGUCUGCUUCCAUUCUCUUCUGUGUAGUGCCUGGUUUAUUUAACUAAUUA; result = 11.6
Strand = GAAAGUGUUUUUCAAACUCAGUGACAAGGACUUUGGUUUUUGUAAGACUGUUGAUGAUAUGAAGGCCUUUUGUAAGAAAAUAAAAAAUAAAGUAAAUUGCCUGUCUCUCU; result = 0.356

Set 4
Target: Interferon regulatory factor 5, full length, phosphomimetic (IRF5, Homo sapiens, UniProt Q13568-2, residues 1-514, S451D/S453D/S456D/S462D)
Method: protein-binding microarray
Form: double-stranded DNA, one strand shown
Medium: in vitro
Tested at: 940 nM top
Notes: 60-bp whole probe
Added: salmon DNA 0.4 mg/ml
Baseline: random background probes
Reading: higher = stronger binding
Endpoint: fitted relative affinity
Constant ends, left off below: GCCTAGCAC … GTCTTGATTCGCTTGACGCTGCTG
Strand = TTGGGACTGGACTATCGGTTAGTGCTA; result = -0.203 z-score
Strand = GCCGGTTTCGGGACTGGGGACGTGCTA; result = 7.35 z-score
Strand = TTAGGTATCCTTCTCCTTTCGTGCTAG; result = 0.77 z-score
Strand = TCACATTGAGATTTCCAACTGTGCTAG; result = -0.0181 z-score
Strand = GACGGTTACCTTCTCCTGACGTGCTAG; result = 0.283 z-score
Strand = GACGGTATCGACTTTCGAGACGTGCTA; result = 4.15 z-score
Strand = GACGGACTGCTTCGCCTGACGTGCTAG; result = -0.361 z-score
Strand = TCATTTTTCCGAGTGAGACTGTGCTAG; result = 0.515 z-score
Strand = CACGAACTGAGTCTCGAGACGTGCTAG; result = 1.09 z-score
Strand = TTAGGACTGGGGACCGGGTTAGTGCTA; result = -0.176 z-score
Strand = TTAGGTTTCGACTATCGGTTCGTGCTA; result = 9.36 z-score
Strand = TTAGGTATCCTACTGGTTTAGTGCTAG; result = 0.438 z-score
Strand = GACGAACTGGTGTTTCGAGACGTGCTA; result = 0.254 z-score
Strand = GAAGGTATCGACACTGGGGACGTGCTA; result = 3.17 z-score
Strand = GACGACCTGAGTATCGAGACGTGCTAG; result = 1.41 z-score
Strand = GACGGACTGGGACTGGGGGCGTGCTAG; result = 0.191 z-score
Strand = TTAGAACTGAGACTGCATTAGTGCTAG; result = -0.109 z-score
Strand = TTAGGTCTCCTACGGCTTTAGTGCTAG; result = -0.345 z-score
Strand = TTAGGACTGGACCTTCGGTTAGTGCTA; result = -0.658 z-score
Strand = TTAGGTATCGGGTATCTGTTAGTGCTA; result = 6.42 z-score
Strand = TCAGTTTCCAAATTGTCACTGTGCTAG; result = 0.806 z-score
Strand = GACGGTTTCGGGTTTCGGGAAGTGCTA; result = 9.75 z-score
Strand = AAGGCTTTGCTTCCTGCAGAGTGCTAG; result = -0.472 z-score
Strand = GTCGGTTTCGGTTTCGGGACGTGCTAG; result = 17.6 z-score
Strand = ACCTGTATATCTTCAGCGGGGTGCTAG; result = -0.0715 z-score

Set 5
Target: Transcriptional repressor CTCF (CTCF, Homo sapiens, UniProt P49711, residues 1-727, full length assumed)
UniProt P49711, sequence (whole entry, looked up): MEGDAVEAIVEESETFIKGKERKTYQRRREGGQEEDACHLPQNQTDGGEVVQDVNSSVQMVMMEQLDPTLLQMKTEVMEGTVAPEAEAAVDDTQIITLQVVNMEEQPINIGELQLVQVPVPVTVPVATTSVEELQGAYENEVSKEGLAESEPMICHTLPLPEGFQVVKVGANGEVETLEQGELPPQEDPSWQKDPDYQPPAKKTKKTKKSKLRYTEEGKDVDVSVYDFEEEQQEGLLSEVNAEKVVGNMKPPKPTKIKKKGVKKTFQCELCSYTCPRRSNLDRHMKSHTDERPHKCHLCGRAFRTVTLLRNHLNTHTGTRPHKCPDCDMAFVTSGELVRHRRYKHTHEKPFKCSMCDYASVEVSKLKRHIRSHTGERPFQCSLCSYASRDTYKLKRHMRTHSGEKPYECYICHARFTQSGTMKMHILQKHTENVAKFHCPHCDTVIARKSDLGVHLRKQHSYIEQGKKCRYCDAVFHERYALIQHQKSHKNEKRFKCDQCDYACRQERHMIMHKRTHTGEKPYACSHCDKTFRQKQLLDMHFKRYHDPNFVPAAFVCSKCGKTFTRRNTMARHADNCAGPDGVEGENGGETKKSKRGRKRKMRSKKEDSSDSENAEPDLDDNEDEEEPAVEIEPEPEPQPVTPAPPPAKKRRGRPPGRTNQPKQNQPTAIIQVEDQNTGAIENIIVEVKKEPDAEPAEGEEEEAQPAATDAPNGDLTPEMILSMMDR
Method: protein-binding microarray
Form: double-stranded DNA, one strand shown
Medium: in vitro
Tested at: not given
Notes: k-mer, scored over probes, only values ≥0.25
Reading: higher = stronger binding
Endpoint: E-score
Strand = ATGCGCGC; result = 0.369
Strand = AATGTGCG; result = 0.283
Strand = TACTATAA; result = 0.364
Strand = ATACAATC; result = 0.307
Strand = GGATTGTA; result = 0.266
Strand = AAAAAGTA; result = 0.277
Strand = TATGATAA; result = 0.361
Strand = TAACAAAA; result = 0.296
Strand = ATTATTTA; result = 0.275
Strand = ATTGTAGG; result = 0.257
Strand = TAATAAAA; result = 0.357
Strand = CGCGCAAG; result = 0.275
Strand = CGTAATTA; result = 0.306
Strand = TAGCGCTA; result = 0.307
Strand = GCCCCGCC; result = 0.27
Strand = ATTGCGCC; result = 0.361
Strand = TACGAGTA; result = 0.297
Strand = TATAAAAA; result = 0.351
Strand = ATTTATAA; result = 0.309
Strand = GGTTTCTA; result = 0.277
Strand = TGTATTAA; result = 0.361
Strand = CAGTATAA; result = 0.298

Repeated from above (set 5):
Strand = AATGTGCG; result = 0.283
Strand = TACTATAA; result = 0.364
Strand = ATACAATC; result = 0.307
Strand = GGATTGTA; result = 0.266
Strand = AAAAAGTA; result = 0.277
Strand = TATGATAA; result = 0.361
Strand = TAACAAAA; result = 0.296
Strand = ATTATTTA; result = 0.275
Strand = ATTGTAGG; result = 0.257
Strand = TAATAAAA; result = 0.357
Strand = CGCGCAAG; result = 0.275
Strand = CGTAATTA; result = 0.306
Strand = TAGCGCTA; result = 0.307
Strand = GCCCCGCC; result = 0.27
Strand = ATTGCGCC; result = 0.361
